Measured values pooled from the literature.
A part holds a random share of what one study measured. Changes are numbered by the printed parent chain.

Study 1
Target: CCNE1, cyclin fold, Cln2 fusion (human)
Technique: yeast growth competition, sequencing
Sample: yeast
Setting: strong parent motif
Relative to: not given
Direction: higher = stronger binding
Starting sequence: BRCA2 docking peptide (human); PSIKRNLLNEFDR; partner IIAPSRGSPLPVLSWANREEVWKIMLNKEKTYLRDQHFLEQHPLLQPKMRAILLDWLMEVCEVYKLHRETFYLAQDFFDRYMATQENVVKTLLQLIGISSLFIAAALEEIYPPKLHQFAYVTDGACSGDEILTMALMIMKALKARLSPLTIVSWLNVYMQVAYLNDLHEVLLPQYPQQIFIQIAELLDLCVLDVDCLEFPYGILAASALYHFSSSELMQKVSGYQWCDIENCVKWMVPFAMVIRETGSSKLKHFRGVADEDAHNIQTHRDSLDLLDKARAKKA
Variant	normalised enrichment score
K4F	1.09
E10P	0.274
L7A	-0.00139
E10L	0.814
L7Y	-0.118
S2F	0.851

Study 2
Target: Sal-like protein 4, full length isoform A (SALL4, Homo sapiens, UniProt Q9UJQ4, residues 1-1053)
Chain of UniProt Q9UJQ4 (whole entry, looked up): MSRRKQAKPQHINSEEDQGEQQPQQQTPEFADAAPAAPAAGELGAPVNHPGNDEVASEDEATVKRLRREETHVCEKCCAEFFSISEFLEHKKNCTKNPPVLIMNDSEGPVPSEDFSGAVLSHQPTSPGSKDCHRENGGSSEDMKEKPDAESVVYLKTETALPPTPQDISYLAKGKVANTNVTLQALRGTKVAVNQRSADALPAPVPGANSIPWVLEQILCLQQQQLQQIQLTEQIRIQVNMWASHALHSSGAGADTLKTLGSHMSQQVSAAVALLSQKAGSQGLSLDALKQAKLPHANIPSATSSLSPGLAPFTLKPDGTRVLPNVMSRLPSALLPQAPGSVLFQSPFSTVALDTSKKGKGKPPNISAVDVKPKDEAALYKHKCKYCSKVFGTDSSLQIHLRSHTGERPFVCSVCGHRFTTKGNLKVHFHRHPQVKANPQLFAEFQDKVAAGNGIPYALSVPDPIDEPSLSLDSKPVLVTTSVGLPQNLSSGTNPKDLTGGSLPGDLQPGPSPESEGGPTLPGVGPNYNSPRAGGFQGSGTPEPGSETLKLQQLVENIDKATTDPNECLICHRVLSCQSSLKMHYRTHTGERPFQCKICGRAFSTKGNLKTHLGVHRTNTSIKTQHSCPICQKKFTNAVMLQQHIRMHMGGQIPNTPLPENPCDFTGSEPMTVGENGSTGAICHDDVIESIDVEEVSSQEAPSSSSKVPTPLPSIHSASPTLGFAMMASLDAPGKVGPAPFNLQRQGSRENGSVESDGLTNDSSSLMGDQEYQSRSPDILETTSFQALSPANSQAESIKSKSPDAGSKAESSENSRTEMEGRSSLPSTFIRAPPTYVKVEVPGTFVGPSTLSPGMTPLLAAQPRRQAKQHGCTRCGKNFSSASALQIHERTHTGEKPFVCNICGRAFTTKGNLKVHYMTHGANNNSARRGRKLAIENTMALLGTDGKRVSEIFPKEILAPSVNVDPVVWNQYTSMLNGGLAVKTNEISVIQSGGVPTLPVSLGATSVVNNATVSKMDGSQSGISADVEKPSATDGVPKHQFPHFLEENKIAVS
Technique: universal PBM
Molecule type: double-stranded DNA, one strand shown
Sample: in vitro
Tested at: 600 nM
Setting: 8-mer, flanks averaged, mean of replicates
Direction: higher = stronger binding
Sequence	E-score
AAAGTACC	0.0461
GTAACTCA	-0.0889
GAAGGCAA	0.0246
GGGTTGAA	-0.0721
CATTGAAA	0.267
AGCTTCGC	-0.129
AGTCTAAC	-0.0197
GCATTCTA	0.146

Study 3
Target: ABI1, truncated, D143A, DHFR fusion (Arabidopsis thaliana)
Technique: DHFR PCA, deep sequencing
Sample: yeast
Setting: methotrexate growth selection, single substitutions
Added: (+)-ABA 2500 µM
Relative to: wild-type fitted maximum
Direction: higher = stronger binding
Starting sequence: PYL1, truncated, DHFR fusion (Arabidopsis thaliana); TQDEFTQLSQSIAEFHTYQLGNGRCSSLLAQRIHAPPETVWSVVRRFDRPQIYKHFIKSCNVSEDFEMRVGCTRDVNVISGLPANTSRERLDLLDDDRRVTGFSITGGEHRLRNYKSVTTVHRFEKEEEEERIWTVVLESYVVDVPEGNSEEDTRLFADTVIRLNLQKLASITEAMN; partner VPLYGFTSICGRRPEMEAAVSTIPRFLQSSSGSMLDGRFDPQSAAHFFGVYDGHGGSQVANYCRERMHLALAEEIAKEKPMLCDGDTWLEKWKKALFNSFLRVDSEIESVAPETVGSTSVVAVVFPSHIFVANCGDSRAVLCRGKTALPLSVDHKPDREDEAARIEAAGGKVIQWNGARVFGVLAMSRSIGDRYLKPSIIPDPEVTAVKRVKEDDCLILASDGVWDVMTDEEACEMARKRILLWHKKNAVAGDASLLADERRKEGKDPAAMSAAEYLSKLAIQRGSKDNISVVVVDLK
Variant	relative binding score
H122F	63.9%
N165R	-0.903%
S11A	96.4%
I133D	107%

Further values, each from its own experiment
Molecule	target	assay	system	conditions	scale	endpoint	result
PhoQ, residues 284 288 289 292 302 303 SSLVEF	PhoP, residues 12 14 15 18 19 LWHVM (Escherichia coli, UniProt P23836)	Sort-seq, measured: YFP reporter	E. coli	PhoQ-PhoP variant library, added: 10 µM Mg2+	relative to: high Mg2+ state, higher = stronger signaling	fold induction	10

Repeated from above (study 1):
Variant	normalised enrichment score
L7Y	-0.118
